Measurements collected from several papers.
Compare with care: the assays were run in different laboratories. Several values in a cell are separate wells, animals, samples, runs or records. Numbers after ± are the reported error.

`COC1OC(C)C(OC2OC(C)C(O)C(OC3OC(C)C(OC4OC(C)C(O)C(OC5OC(C)C(OC6OC(C)C(O)C(OC7OC(C)C(OC8OC(C)C(O)C(OS(=O)(=O)O)C8OS(=O)(=O)O)C(OS(=O)(=O)O)C7OS(=O)(=O)O)C6OS(=O)(=O)O)C(OS(=O)(=O)O)C5OS(=O)(=O)O)C4OS(=O)(=O)O)C(OS(=O)(=O)O)C3OS(=O)(=O)O)C2OS(=O)(=O)O)C(OS(=O)(=O)O)C1OS(=O)(=O)O` (stereo not shown) has a viability of 74% and 75.8% and 88.1% (RAW264.7; CCK-8; concentration not given, 24 h, medium concentration; relative to: untreated cells).
The viability of `CO[C@H]1C=C[C@@H](OC(=O)c2ccccc2)[C@H](O)[C@@]1(O)COC(=O)c1ccccc1` is reported as 77.1% (A549; cell growth or viability, MTT; 100 µg/mL).
For `COC1CN([C@H]2CC[C@H]([C@@]3(C)Oc4c(Cl)cc(C(=O)NCc5c(SC)cc(C)[nH]c5=O)c(C)c4O3)CC2)C1`, “log2 fold change” read 1.47 (RNA-seq, measured: LRRC1; human, whole blood; dose not given, 24 h; relative to: pretreatment baseline).
The ΔTm of `C[n+]1cccc2cc(/C=N/NC(=O)C(=O)N/N=C/c3ccc4c(ccc[n+]4C)c3)ccc21` is reported as 0.8 ± 0.1 °C (hp2 hairpin duplex DNA; FRET melting; 1 µM).
`CC(=O)OC[C@H]1O[C@@H]([Se]C(=O)c2ccc([N+](=O)[O-])cc2)[C@H](OC(C)=O)[C@@H](OC(C)=O)[C@@H]1OC(C)=O` has a viability of 22.3 ± 17.5% (THP-1 macrophages (PMA-differentiated); WST-1; 50 µM, 24 h).
For `COc1cc(N2CCN(C(=O)CN)CC2)ccc1Nc1ncc(Cl)c(Nc2ccccc2P(C)(C)=O)n1`, the viability was 65% and 59% (NCI-H3122; cell growth or viability, CCK-8; 50 nM, 48 h).
`COC1OC(C)C(OS(=O)(=O)O)C(OC2OC(C)C(OS(=O)(=O)O)C(OC3OC(C)C(OS(=O)(=O)O)C(OC4OC(C)C(OS(=O)(=O)O)C(OC5OC(C)C(OS(=O)(=O)O)C(OC6OC(C)C(OS(=O)(=O)O)C(OC7OC(C)C(OS(=O)(=O)O)C(OC8OC(C)C(OS(=O)(=O)O)C(OS(=O)(=O)O)C8OS(=O)(=O)O)C7OS(=O)(=O)O)C6OS(=O)(=O)O)C5OS(=O)(=O)O)C4OS(=O)(=O)O)C3OS(=O)(=O)O)C2OS(=O)(=O)O)C1OS(=O)(=O)O` (stereo not shown) gave a viability of 105% and 115% and 112% (NIH 3T3; CCK-8; concentration not given, 24 h, medium concentration; relative to: untreated cells).
`Cc1ccc(-n2cc(CSc3nc4ccccc4n3Cc3cn(-c4ccc(C)cc4)nn3)nn2)cc1` has a viability of 9.07% (HEK293; MTT; 250 ppm).
With `CC(=O)OC[C@H]1O[C@@H]([Se]C(C)=O)[C@H](OC(C)=O)[C@@H](OC(C)=O)[C@@H]1OC(C)=O` the viability was 104 ± 19.6% (THP-1 macrophages (PMA-differentiated); WST-1; 10 µM, 24 h).
With `CN1CCCNC(=O)c2cccc(c2)C(=O)NCCCN(C)CCCNc2cccc3c2C(=O)c2cccc(c2C3=O)NCCC1` the viability was 92.1% (NHEK; CCK-8; 0.015 µM, 48 h; relative to: untreated).
`C[n+]1cc(/C=N/NC(=O)c2cc(C(=O)N/N=C/c3cc4ccccc4[n+](C)c3)ncn2)cc2ccccc21` has a ΔTm of 3.3 ± 0.2 °C (MYC parallel G4 DNA; FRET melting; 1 µM, DNA 0.2 µM, added: duplex DNA competitor 10 µM).
`COC1OC(C)C(OS(=O)(=O)O)C(OC2OC(C)C(OS(=O)(=O)O)C(OC3OC(C)C(OS(=O)(=O)O)C(OC4OC(C)C(OS(=O)(=O)O)C(OC5OC(C)C(OS(=O)(=O)O)C(OC6OC(C)C(OS(=O)(=O)O)C(OC7OC(C)C(OS(=O)(=O)O)C(OC8OC(C)C(OS(=O)(=O)O)C(OC9OC(C)C(OS(=O)(=O)O)C(OC%10OC(C)C(OS(=O)(=O)O)C(OS(=O)(=O)O)C%10OS(=O)(=O)O)C9OS(=O)(=O)O)C8OS(=O)(=O)O)C7OS(=O)(=O)O)C6OS(=O)(=O)O)C5OS(=O)(=O)O)C4OS(=O)(=O)O)C3OS(=O)(=O)O)C2OS(=O)(=O)O)C1OS(=O)(=O)O` (stereo not shown) has a viability of 103% and 107% (NIH 3T3; CCK-8; concentration not given, 24 h, medium concentration; relative to: untreated cells).
The viability of `CC[C@H](C)[C@@H](C(=O)N[C@@H](Cc1ccc(O)cc1)C(=O)N1CCC[C@H]1C(=O)N[C@@H](Cc1ccccc1)C(=O)O)n1cc(C(Cc2ccc(O)cc2)NC(=O)[C@@H](NC(=O)[C@H](CCCNC(=N)N)NC(=O)[C@@H](N)CC(=O)O)C(C)C)nn1` (stereo partly shown) is reported as 94.8% (Caco-2; cell growth or viability, MTT; 12.5 µM, 48 h).
